Measurements of several laboratories.
Compare with care: the assays were run in different laboratories.
Organism: Staphylococcus epidermidis

| SMILES | test | system | setting | MIC |
| --- | --- | --- | --- | --- |
| Oc1c(Br)cc(Br)c2nc3cc(Cl)ccc3nc12 | broth microdilution | 12228 | – | 0.15 µM |
| O=C(c1ccccc1O)c1[nH]c(Cl)c(Cl)c1-n1c(C(=O)c2ccccc2O)cc(Cl)c1Cl | microbial growth | ATCC14990 | – | 5.33 µM |
| CC1COC2=C1C(=O)C(=O)c1c2ccc2c1C(OC(=O)CNC(=O)C(N)CCC(=O)O)CCC2(C)C (mixture of isomers) | – | GDMCC 1.143 | 48 h | 31 µM |
| CC[C@H](C)[C@H](NC(=O)[C@H](Cc1c[nH]c2ccccc12)NC(=O)[C@H](Cc1ccc(O)cc1)NC(=O)[C@H](CCCCN)NC(=O)[C@H](CC(C)C)NC(=O)[C@@H](N)CO)C(=O)N[C@@H](CCCNC(=N)N)C(=O)N[C@@H](Cc1ccc(O)cc1)C(=O)N[C@@H](CCCCN)C(=O)N[C@@H](CCCNC(=N)N)C(=O)N[C@@H](CCC(N)=O)C(=O)NCC(=O)N[C@@H](C)C(=O)N[C@@H](C)C(=O)N[C@@H](CCCNC(=N)N)C(=O)N[C@@H](Cc1ccccc1)C(N)=O | broth dilution | KCTC 1917 | – | 25 µM |
| c1ccc(CCNC2CCCc3c2[nH]c2ccc(C4CCCCC4)cc32)cc1 (centres unmarked) | microbial growth, broth dilution | MRSE | – | 2 µg/mL |
| CC[C@H](C)[C@H](N)C(=O)N[C@@H](CCCNC(=N)N)C(=O)N[C@H](C(=O)N[C@@H](Cc1c[nH]c2ccccc12)C(=O)N[C@@H](Cc1ccccc1)C(=O)N[C@H](C(=O)N[C@@H](CCCCN)C(=O)N[C@H](C(=O)N[C@@H](CCCNC(=N)N)C(=O)N[C@@H](CCCCN)C(=O)N[C@@H](CCSC)C(=O)N[C@@H](CCCCN)C(=O)N[C@@H](C)C(=O)N[C@H](C(=O)N[C@@H](Cc1ccc(O)cc1)C(=O)N[C@@H](Cc1c[nH]cn1)C(N)=O)[C@@H](C)CC)C(C)C)[C@@H](C)CC)C(C)C | broth dilution | KCTC 1917 | – | 100 µM |
| Cc1cc(C)c2nc3c(Br)cc(Br)c(O)c3nc2c1 | broth microdilution | 12228 | 16 h, 37 °C | 0.15 µM |
| CC[C@H](C)[C@H](NC(=O)[C@H](C)NC(=O)[C@@H](NC(=O)[C@H](CC(=O)O)NC(=O)[C@H](CCCCN)NC(=O)[C@H](CO)NC(=O)[C@@H](NC(=O)[C@H](CC(N)=O)NC(=O)[C@H](C)NC(=O)[C@@H](NC(=O)[C@H](CCC(=O)O)NC(=O)[C@H](CCCCN)NC(=O)[C@@H](NC(=O)[C@@H](NC(=O)[C@H](Cc1c[nH]cn1)NC(=O)[C@H](CCCCN)NC(=O)[C@@H](NC(=O)[C@H](CCCCN)NC(=O)[C@H](CCCCN)NC(=O)[C@@H](NC(=O)[C@H](CC(C)C)NC(=O)[C@H](CCCCN)NC(=O)[C@H](CC(N)=O)NC(=O)[C@H](Cc1ccccc1)NC(=O)[C@H](CCCNC(=N)N)NC(=O)[C@H](CCCCN)NC(=O)[C@H](CCCNC(=N)N)NC(=O)[C@H](Cc1ccccc1)NC(=O)CN)C(C)C)C(C)C)[C@@H](C)O)[C@@H](C)CC)[C@@H](C)O)C(C)C)C(C)C)C(=O)N[C@H](C(=O)N[C@@H](C)C(=O)NCC(=O)N[C@@H](CO)C(=O)NCC(=O)N[C@H](C(=O)N[C@@H](C)C(=O)N[C@H](C(=O)NCC(=O)N[C@@H](C)C(=O)N[C@@H](C)C(=O)N[C@@H](CCSC)C(N)=O)C(C)C)C(C)C)C(C)C | – | ATCC 35984, CAMHB | – | > 1020 µg/mL |
| CC[C@H](C)[C@H](NC(=O)[C@H](Cc1c[nH]c2ccccc12)NC(=O)[C@H](Cc1ccc(O)cc1)NC(=O)[C@H](CCCCN)NC(=O)[C@H](CC(C)C)NC(=O)[C@H](CO)NC(=O)[C@@H](N)Cc1ccccc1)C(=O)N[C@@H](CCCNC(=N)N)C(=O)N[C@@H](Cc1ccc(O)cc1)C(=O)N[C@@H](CCCCN)C(=O)N[C@@H](CCCNC(=N)N)C(=O)N[C@@H](CCC(N)=O)C(=O)NCC(=O)N[C@@H](C)C(=O)N[C@@H](C)C(=O)N[C@@H](CCCNC(=N)N)C(=O)N[C@@H](Cc1ccccc1)C(N)=O | broth dilution | KCTC 1917 | – | 100 µM |
| Oc1c(Br)cc(Br)c2nc3cc(F)c(F)cc3nc12 | broth microdilution | 12228 | – | 0.39 µM |
| CC1COC2=C1C(=O)C(=O)c1c2ccc2c1C(OC(=O)CNC(=O)CN)CCC2(C)C (mixture of isomers) | – | GDMCC 1.143 | 48 h | 63 µM |
| CC(C)C[C@H](NC(=O)[C@H](CCCNC(=N)N)NC(=O)CNC(=O)CNC(=O)[C@@H](N)CCCNC(=N)N)C(=O)N[C@H]1CSSC[C@@H](C(=O)N[C@H](C(=O)NCC(=O)N[C@@H](CCCNC(=N)N)C(N)=O)C(C)C)NC(=O)[C@H](C(C)C)NC(=O)[C@@H]2CSSC[C@H](NC(=O)[C@H](Cc3ccc(O)cc3)NC1=O)C(=O)N[C@@H](CCCNC(=N)N)C(=O)N[C@@H](CCCNC(=N)N)C(=O)N[C@@H](CCCNC(=N)N)C(=O)N[C@@H](Cc1ccccc1)C(=O)N2 | broth dilution | ATCC 51625 | 18 h, 37 °C | 2.3 µM |
| Oc1c(Br)cc(Br)c2nc3ccc(C(F)(F)F)cc3nc12 | broth microdilution | methicillin-resistant 35984 | – | 0.3 µM |
| N=C(N)NCCC[C@H](NC(=O)[C@H](CCCNC(=N)N)NC(=O)[C@H](Cc1ccccc1)NC(=O)[C@H](CO)NC(=O)[C@H](Cc1ccccc1)NC(=O)[C@H](Cc1c[nH]c2ccccc12)NC(=O)[C@H](Cc1ccccc1)NC(=O)[C@H](CO)NC(=O)[C@H](Cc1ccccc1)NC(=O)[C@H](CCCNC(=N)N)NC(=O)[C@@H](N)CCCNC(=N)N)C(N)=O | broth microdilution | 12228, Mueller-Hinton broth | 24 h, 37 °C, lowest concentration, 95% inhibition, together with: BSA | 128 µM |

A few entries again:
| SMILES | test | system | setting | MIC |
| --- | --- | --- | --- | --- |
| CC1COC2=C1C(=O)C(=O)c1c2ccc2c1C(OC(=O)CNC(=O)C(N)CCC(=O)O)CCC2(C)C (mixture of isomers) | – | GDMCC 1.143 | 48 h | 31 µM |
